# Experimental data gathered from unrelated publications.
# A part holds a random share of what one study measured. Positions count from the first letter of the parent shown.

# Series 1 — technique: protein binding microarray; molecule type: double-stranded DNA, one strand shown; sample: in vitro; concentration: not given; baseline: not given; reading: higher = stronger binding
# Target: Histone acetyltransferase KAT6A, winged helix 1, GST fusion (KAT6A, Homo sapiens, UniProt Q92794, residues 1-85)
# Notes: 8-mer, flanks averaged, mean of 2 arrays, mostly near background
# Target sequence (chain): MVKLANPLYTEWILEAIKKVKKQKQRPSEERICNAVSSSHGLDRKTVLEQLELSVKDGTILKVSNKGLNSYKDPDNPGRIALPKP
Sequence,E-score
GACAATGA,-0.108
CGTGAAGA,0.0974
AGAAAACG,0.0752
ACGCTACC,0.254
CAATATGA,-0.164
ACCGAGAC,0.0216
CGCATCCA,0.272
TGAGAGCA,-0.253
ACCTCCAC,-0.08
AACGAGTT,-0.219
CCCTTTAC,0.0368
ATATCGAG,-0.00026
ACAGTGCT,-0.00171
AAAACAGA,-0.0496
AAGACATC,-0.196
ACCATGGT,-0.116
ACTATAAT,-0.046

# Series 2 — technique: protein-binding microarray; molecule type: double-stranded DNA, one strand shown; sample: in vitro; concentration: not given; reading: higher = stronger binding
# Target: Protein C-ets-1 (ETS1, Homo sapiens, UniProt P14921, residues 1-441, K379A, full length assumed)
# UniProt P14921, sequence (whole entry, unmodified, looked up): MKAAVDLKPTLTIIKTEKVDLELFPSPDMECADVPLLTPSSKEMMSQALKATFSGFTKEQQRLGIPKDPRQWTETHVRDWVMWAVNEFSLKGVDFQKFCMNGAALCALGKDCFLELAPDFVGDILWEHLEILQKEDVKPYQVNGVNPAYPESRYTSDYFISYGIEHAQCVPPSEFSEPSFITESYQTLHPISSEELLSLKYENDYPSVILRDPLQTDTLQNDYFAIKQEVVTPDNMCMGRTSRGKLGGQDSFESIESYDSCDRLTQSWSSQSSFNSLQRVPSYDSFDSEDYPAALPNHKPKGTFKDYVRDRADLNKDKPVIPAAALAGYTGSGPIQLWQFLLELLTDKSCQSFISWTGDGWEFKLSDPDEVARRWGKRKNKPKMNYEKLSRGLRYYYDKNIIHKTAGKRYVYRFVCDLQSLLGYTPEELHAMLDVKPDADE
# Notes: k-mer, scored over probes, only values ≥0.25
Sequence,E-score
GTACCGGA,0.419
AACCGGGT,0.3
ATTGTTCA,0.298
CGGATGTA,0.318
ACCGGGGG,0.474
CGGTAAAG,0.262
CACATTTC,0.285
ACAACCGT,0.278
CGTTGATA,0.268
AAAGACAA,0.256
CAAACCGG,0.384
ACCGGTCG,0.364
CGTCGGTC,0.269

# Series 3 — technique: RNA Bind-n-Seq; molecule type: RNA; sample: in vitro; concentration: 200 nM; notes: whole 134-nt RNA, ends assumed; together with: 150 mM KCl; baseline: input library; reading: higher = stronger binding
# Target: Ras GTPase-activating protein-binding protein 1, full length (G3BP1, Homo sapiens, UniProt Q13283)
# UniProt Q13283, sequence (whole entry, looked up): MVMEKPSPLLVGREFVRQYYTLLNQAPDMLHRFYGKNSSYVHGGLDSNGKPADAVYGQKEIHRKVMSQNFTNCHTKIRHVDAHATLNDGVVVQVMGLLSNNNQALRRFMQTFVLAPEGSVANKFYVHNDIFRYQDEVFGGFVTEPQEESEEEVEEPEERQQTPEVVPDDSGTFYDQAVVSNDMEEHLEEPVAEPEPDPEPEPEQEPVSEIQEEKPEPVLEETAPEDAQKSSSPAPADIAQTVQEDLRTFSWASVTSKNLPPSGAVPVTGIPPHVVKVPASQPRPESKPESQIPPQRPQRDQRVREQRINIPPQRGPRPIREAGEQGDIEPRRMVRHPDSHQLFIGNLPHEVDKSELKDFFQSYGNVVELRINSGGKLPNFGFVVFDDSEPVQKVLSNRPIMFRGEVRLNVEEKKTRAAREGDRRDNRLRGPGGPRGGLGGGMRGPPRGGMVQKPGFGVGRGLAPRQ
# Shared flanks, not repeated: GGGAGUUCUACAGUCCGACGAUC … UGGAAUUCUCGGGUGUCAAGG
Sequence,log2 enrichment
AGUCCUGUGCUACACAUCGUAUGUACCGAAUCGGGUUUUUUUGGGUUUUUGGGAGGGAAAGUAUUAUGUUACGCCGUUCGGAUCUGCACU,-0.178
CACAGACAACACGCACCCACACAGACACAGAGGGAAGGGGUUGGGAUGGGGACAGGGUGCACAGGAGGGCGGGGUAGGACCCCAGCCCCU,1.66
UCCUGUGCUACACAUCGUAUGUACCGAAUCAAACCCCCCCAAACCCAAACCCCCCCAAAAAAGUAUUAUGUUACGCCGUUCGGAUCUGCA,1.38
CACAGACAACACGCACCCACACAGACACAGAGGGAAGGGGUUGGGAUGGGGACAGGGUGCACAGCAGGGCGGGGUAGGACACCAGCCCCU,1.81
CAAGUCCUGUGCUACACAUCGUAUGUACCGAAUCGGGGUUUGGGGUUUGGUUUGGGAAAGUAUUAUGUUACGCCGUUCGGAUCUGCACUU,0.0343
UCCACCCCUUCUUCCUCCCUUUAACUUAUCCAUUCACUUAAAACAUUACCUGGUCAUCUGGUAAGCCCGGGACAGUAAGCCGAGUGGCUG,0.563
UGGAAGUGGCGCUGGCGCCUGAAGAGUUGGAGCUGGAUCCUAUGGCCAUGACCCAGAAGUAUGAGGAGCAUGUGCGGGAGCAGCAGGCUC,0.149
AAGUCCUGUGCUACACAUCGUAUGUACCGAAUCGGGAAAGGGUUUUUUUGGGUGGGAAAGUAUUAUGUUACGCCGUUCGGAUCUGCACUU,0.238
UAACUUUAGAGGAGGAUCUGAUGGAUAUGGCAGUGGACGUGGAUUUGGGGAUGGCUAUAAUGGGUAUGGAGGAGGACCAGGAGGUGGCAA,0.18

# Series 4 — technique: DHFR PCA, deep sequencing; sample: yeast; together with: (+)-ABA 200 µM; baseline: wild-type fitted maximum; reading: higher = stronger binding
# Target: ABI1, truncated, D143A, DHFR fusion (Arabidopsis thaliana)
# Notes: methotrexate growth selection, single substitutions
# Parent: PYL1, truncated, DHFR fusion (Arabidopsis thaliana); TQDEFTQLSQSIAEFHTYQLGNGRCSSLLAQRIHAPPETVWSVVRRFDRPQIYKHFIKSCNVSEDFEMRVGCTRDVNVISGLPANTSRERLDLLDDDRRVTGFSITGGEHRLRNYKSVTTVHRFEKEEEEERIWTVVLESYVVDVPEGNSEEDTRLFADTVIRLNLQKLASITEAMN; partner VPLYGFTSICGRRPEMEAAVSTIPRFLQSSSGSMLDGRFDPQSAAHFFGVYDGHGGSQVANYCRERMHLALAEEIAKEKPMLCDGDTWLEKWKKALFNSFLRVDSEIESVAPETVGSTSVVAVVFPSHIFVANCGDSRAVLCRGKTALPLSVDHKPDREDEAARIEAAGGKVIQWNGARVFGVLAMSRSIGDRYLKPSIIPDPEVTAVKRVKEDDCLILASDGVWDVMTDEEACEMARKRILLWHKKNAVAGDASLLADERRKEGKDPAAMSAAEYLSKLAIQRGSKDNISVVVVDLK
Substitution,relative binding score [%]
Q10Y,87.3
R74N,7.13
G21Q,103
G107Y,52.5
W41P,1.57
R88F,102
F66A,101
D48N,87.2
D95N,102

# Series 5 — technique: competition protein-binding microarray; molecule type: double-stranded DNA, one strand shown; sample: in vitro; concentration: 2 µM; together with: Cbf1 competitor, 0.05 µM; reading: higher = stronger binding; shared flanks, not repeated: … GTCTTGATTCGCTTGACGCTGCTG
# Target: Phosphate system positive regulatory protein PHO4, full length, GST-tagged (PHO4, Saccharomyces cerevisiae, UniProt P07270, residues 1-312)
# Notes: whole 60-bp probe, lowest competitor level
# Residues (chain): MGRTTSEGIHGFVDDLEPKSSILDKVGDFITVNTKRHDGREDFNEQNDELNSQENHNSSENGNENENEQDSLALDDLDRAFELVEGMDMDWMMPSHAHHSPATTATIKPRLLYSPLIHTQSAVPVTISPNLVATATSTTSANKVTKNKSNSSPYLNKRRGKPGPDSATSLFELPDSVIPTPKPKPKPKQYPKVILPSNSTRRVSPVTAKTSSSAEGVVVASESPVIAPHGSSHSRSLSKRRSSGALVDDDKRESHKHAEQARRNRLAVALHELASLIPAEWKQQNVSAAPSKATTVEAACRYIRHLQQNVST
Sequence,fluorescence intensity
CGCGCGCGGCCGGGCCATGTGAAGATTTTAACGGGC,4620 a.u.
ATTTCTTTAGCCGGCCACGTGGCAACTGAAATGTCT,19800 a.u.
TGCGCAACAACTTGGAGCGTGGGTGTATGTCTAGAA,8090 a.u.
GGCTCGCTAGGCGGCTACATGACAAAATGCCCAAGT,3770 a.u.
CTAACGAAGGTTTGACCGGTGGGTGACAAGCCAAGT,3410 a.u.
CATACCCAACCTTGGATCGTGGGTGAAGATATTTGT,10200 a.u.
CGGGGTTAAGTTTGCCCCGTGGGTGGCTTGCAGCAG,11300 a.u.
TTTATCATTCGTTAACTTTCAACTATCTGATTTTGA,3100 a.u.
GTCTTGTCTCATTGTCACCTAACTTTCCCCACTTCA,3990 a.u.

# Series 6 — technique: aptamer microarray, sandwich; molecule type: DNA with 2'F-ANA; sample: in vitro; concentration: 200 nM; together with: Cy3 exosite-II aptamer, 400 nM; reading: higher = stronger binding; sequence: GGTTGGTGTGGTTGG
# Target: Prothrombin, mature alpha-thrombin (F2, Homo sapiens, UniProt P00734)
# Notes: whole 15-mer aptamer, many near background
Modification,mean fluorescence intensity [a.u.]
2'F-ANA at 2 3 5 6 9 11 12 14,48.9
2'F-ANA at 2 4 5 6 7 9 10 11 12 14,79.9
2'F-ANA at 1 3 10 15,217
2'F-ANA at 1 2 3 4 6 7 8 10 12,75.8
2'F-ANA at 1 2 5 8 9 11 12 15,103
2'F-ANA at 1 3 7 8 12 13,587
2'F-ANA at 1 3 4 5 6 9 10 12 13,50.5
2'F-ANA at 3 5 6 8 9 10 11 13 14 15,52.7
2'F-ANA at 4 5 7 11 12 14,98.4
2'F-ANA at 2 4 5 8 9 10 11 12 14 15,46.7
2'F-ANA at 1 2 4 5 7 8 9 14,47.8
2'F-ANA at 2 4 5 6 7 8 9 10 12 13 15,53
2'F-ANA at 1 2 7 9 11 12 14,70.6
2'F-ANA at 4 5 7 9 14 15,43.2

# Series 7 — technique: universal PBM; molecule type: double-stranded DNA, one strand shown; sample: in vitro; concentration: not given; reading: higher = stronger binding
# Target: Sal-like protein 4, full length isoform B (SALL4, Homo sapiens, UniProt Q9UJQ4-2, residues 1-616)
# Notes: 8-mer, flanks averaged, mean of replicates
Sequence,E-score
CTGGAAAC,0.0288
TCCGTGAA,0.00469
ACCCGATC,-0.0866
AGGCGACT,-0.0908
GGTGCCCA,-0.227
CAGAACTG,-0.0988
CACTCCGA,-0.2
CATAATGA,0.254
ATCAAAAA,0.327
CCTGTGTA,0.192
ATCACTAA,0.0901
ATTGACGA,0.22
CTTGCGTC,-0.246
CAATCAGG,-0.0172
ATCGCACG,0.00145
CCATTGCA,0.112

# Series 8 — technique: protein-binding microarray; molecule type: double-stranded DNA, one strand shown; sample: in vitro; concentration: 250 nM; notes: 60-bp whole probe; together with: salmon DNA 0.4 mg/ml; baseline: random background probes; reading: higher = stronger binding; shared flanks, not repeated: GCCTAGCAC … GTCTTGATTCGCTTGACGCTGCTG
# Target: Interferon regulatory factor 5, full length, phosphomimetic (IRF5, Homo sapiens, UniProt Q13568-2, residues 1-514, K96S/S451D/S453D/S456D/S462D)
Sequence,log fluorescence [z-score]
CACTTTGGATAACCAAAAACGTGCTAG,0.481
GGCGGACTGGGTCTCGGGACGTGCTAG,-0.762
TTAGGTATCTTTCTCCTTTAGTGCTAG,1.25
TTAGATTTCACTTCCGATTAGTGCTAG,3.94
TCTATCTGCAGACTCTCACAGTGCTAG,0.9
GACTCTTCAGCACTCGGGTCGTGCTAG,-0.0185
TTAGGTTTCGTTTCCCTTTAGTGCTAG,8.06
TTAGATATCAGTATCTATTAGTGCTAG,2.39
TCAACTCTTCCTTTACTACTGTGCTAG,0.629
TTAGGTTTCCTACTGCTTTAGTGCTAG,0.458
GTGACTCTGAACCTTGGGCTGTGCTAG,-0.653
TAAGAACTGAGTTTCGATTAGTGCTAG,9.53
GACGGACTCGACACTGGGGACGTGCTA,-0.346
TTAGGTCTCTGTATCGGTTAGTGCTAG,4.34
GACGGTCTCCTTTTGCTGACGTGCTAG,-0.101

# Some of these lines once more (series 6):
Modification,mean fluorescence intensity [a.u.]
2'F-ANA at 1 2 7 9 11 12 14,70.6
2'F-ANA at 3 5 6 8 9 10 11 13 14 15,52.7
2'F-ANA at 1 2 4 5 7 8 9 14,47.8
2'F-ANA at 1 2 3 4 6 7 8 10 12,75.8
2'F-ANA at 2 4 5 6 7 8 9 10 12 13 15,53
2'F-ANA at 4 5 7 11 12 14,98.4
2'F-ANA at 2 3 5 6 9 11 12 14,48.9
2'F-ANA at 2 4 5 8 9 10 11 12 14 15,46.7
2'F-ANA at 1 3 4 5 6 9 10 12 13,50.5
